Measurements of several laboratories.
Each line is one published result; not all experiments were run side by side.
Organism: Staphylococcus aureus

The MIC of `CC[C@H]1OC(=O)[C@H](C)[C@@H](OC(=O)Cc2ccc(OC)cc2)[C@H](C)[C@@H](O[C@@H]2O[C@H](C)C[C@H](N(C)C)[C@H]2O)[C@](C)(OC)C[C@@H](C)C(=O)[C@H](C)[C@@H](O)[C@]1(C)O` is reported as 8 µg/mL (BAA-977).
With `Oc1c(Br)cc(Br)c2nc3cc(Cc4ccccc4)ccc3nc12` the MIC was 0.39 µM (129 MRSA clinical isolate).
For `CC[C@H]1OC(=O)[C@H](C)[C@@H](OC(=O)Cc2ccccc2Cl)[C@H](C)[C@@H](O[C@@H]2O[C@H](C)C[C@H](N(C)C)[C@H]2O)[C@](C)(OC)C[C@@H](C)C(=O)[C@H](C)[C@@H](O)[C@]1(C)O`, the MIC was 2 µg/mL (BAA-977).
`CC(C)C[C@@H]1NC(=O)[C@@H](CC(C)C)NC(=O)[C@H](CCN)NC(=O)[C@@H](NC(=O)[C@H](CCN)NC(=O)[C@@H](N)[C@@H](C)O)CCNC(=O)[C@H]([C@@H](C)O)NC(=O)[C@H](CCN)NC(=O)[C@H](CCN)NC1=O` has an MIC of > 128 µg/mL (broth microdilution; MRSA USA300, cation-adjusted Mueller-Hinton broth; 20 to 24 h, 37 °C, 0.002% polysorbate 80).
`COc1c(NC(=O)c2ccc(NC(=O)c3ccc(NC(=O)[C@H](Cc4c[nH]nn4)NC(=O)c4ccc(NC(=O)/C(C)=C/c5ccc(O)cc5)cc4)cc3)cc2O)ccc(C(=O)O)c1O` has an MIC of 32 µg/mL (broth microdilution; ciprofloxacin-resistant).
With `CC1C=CC=CC(C)C2C=CC3CC(C)(O)C(Cl)C(C)C3C2C(=O)C(Cl)(Cl)C(=O)C(C)C(=O)O1` (centres unmarked) the MIC was 0.025 µg/mL (MSSA clinical isolate; CLI ERY resistant).
For `COc1ccc(NC(=O)COc2cccc(OCC(C)C)c2)cc1`, the MIC was > 128 µg/mL (microbial growth, broth dilution; MB2865).
`CC[C@H]1OC(=O)[C@H](C)[C@@H](OC(=O)Cc2ccc(OC(F)(F)F)cc2)[C@H](C)[C@@H](O[C@@H]2O[C@H](C)C[C@H](N(C)C)[C@H]2O)[C@](C)(OC)C[C@@H](C)C(=O)[C@H](C)[C@@H](O)[C@]1(C)O` has an MIC of 8 µg/mL (DSM 20231 MSSA).
For `COc1cc(C(=O)Nc2ccc(C(=O)O)c(O)c2)ccc1NC(=O)c1ccc(NC(=O)[C@H](Cc2c[nH]nn2)NC(=O)c2ccc(NC(=O)/C(C)=C/c3ccc(O)cc3)cc2)cc1`, the MIC was 8 µg/mL (broth microdilution; ciprofloxacin-resistant).
`CCCCC=CC(=O)NC(Cc1cc(F)cc(F)c1)C(=O)NC1COC(=O)C2CCCN2C(=O)C(C)NC(=O)C(C)N(C)C(=O)C2CCCN2C1=O` (centres unmarked) has an MIC of 0.78 µg/mL (microbial growth, broth dilution).
For `CCCCCCCCn1cc[n+](CCCCCCCCOc2cc(OCCCCCCCC[n+]3ccn(CCCCCCCC)c3)cc(OCCCCCCCC[n+]3ccn(CCCCCCCC)c3)c2)c1.[Br-].[Br-].[Br-]`, the MIC was 1 µM (CA-MRSA USA300-0114).
The MIC of `CC[C@H]1OC(=O)[C@H](C)[C@@H](OC(=O)Cc2ccc([N+](=O)[O-])cc2)[C@H](C)[C@@H](O[C@@H]2O[C@H](C)C[C@H](N(C)C)[C@H]2O)[C@](C)(OC)C[C@@H](C)C(=O)[C@H](C)[C@@H](O)[C@]1(C)O` is reported as 2 µg/mL (BAA-977).
The MIC of `CCCCCCCCn1cc[n+](CCCCCCCCCCOc2cc(OCCCCCCCCCC[n+]3ccn(CCCCCCCC)c3)cc(OCCCCCCCCCC[n+]3ccn(CCCCCCCC)c3)c2)c1.[Br-].[Br-].[Br-]` is reported as 4 µM (CA-MRSA USA300-0114).
With `CN[C@H](CC(C)C)C(=O)N[C@H]1C(=O)N[C@@H](CC(N)=O)C(=O)N[C@H]2C(=O)N[C@H]3C(=O)N[C@H](C(=O)N[C@H](C(=O)O)c4cc(O)cc(O)c4-c4cc3ccc4O)[C@H](O)c3ccc(c(Cl)c3)Oc3cc2cc(c3O[C@@H]2O[C@H](CO)[C@@H](O)[C@H](O)[C@H]2O[C@H]2C[C@](C)(NCc3ccc(OCc4cn(CCCCC(=O)N[C@H](C(=O)N[C@@H](CCN)C(=O)N[C@H]5CCNC(=O)[C@H]([C@@H](C)O)NC(=O)[C@H](CCN)NC(=O)[C@H](CCN)NC(=O)[C@H](CC(C)C)NC(=O)[C@@H](CC(C)C)NC(=O)[C@H](CCN)NC5=O)[C@@H](C)O)nn4)c(OC)c3)[C@H](O)[C@H](C)O2)Oc2ccc(cc2Cl)[C@H]1O` the MIC was 0.25 µg/mL (broth microdilution; MRSA USA300, cation-adjusted Mueller-Hinton broth; 20 to 24 h, 37 °C, 0.002% polysorbate 80).
For `CCCCCC[N+](C)(C)CCCCOc1cc(OCCCC[N+](C)(C)CCCCCC)cc(OCCCC[N+](C)(C)CCCCCC)c1.[Br-].[Br-].[Br-]`, the MIC was 32 µM (SH1000 MSSA).
The MIC of `CC[C@H]1OC(=O)[C@H](C)[C@@H](OC(=O)Cc2ccc(N)cc2)[C@H](C)[C@@H](O[C@@H]2O[C@H](C)C[C@H](N(C)C)[C@H]2O)[C@](C)(OC)C[C@@H](C)C(=O)[C@H](C)[C@@H](O)[C@]1(C)O` is reported as 4 µg/mL (DSM 20231 MSSA).
`COc1cc(C(=O)O)ccc1NC(=O)c1ccc(NC(=O)c2ccc(NC(=O)[C@H](Cc3c[nH]nn3)NC(=O)c3ccc(NC(=O)/C(C)=C/c4ccc(O)cc4)cc3)cc2)c(OC)c1O` gave an MIC of 4 µg/mL (broth microdilution; ciprofloxacin-resistant).
`CCCCCCCCCC[N+](C)(C)CCCCCCOc1cc(OCCCCCC[N+](C)(C)CCCCCCCCCC)cc(OCCCCCC[N+](C)(C)CCCCCCCCCC)c1.[Br-].[Br-].[Br-]` gave an MIC of 1 µM (SH1000 MSSA).
`COc1cc2c(cc1OC)-c1cc3ccc(OC)c(OC)c3c[n+]1CC2.[Cl][Fe-]([Cl])([Cl])[Cl]` has an MIC of 800 µM (24 h, 37 °C).
`CCCCCCn1cc[n+](CCCCCCCCOc2cc(OCCCCCCCC[n+]3ccn(CCCCCC)c3)cc(OCCCCCCCC[n+]3ccn(CCCCCC)c3)c2)c1.[Br-].[Br-].[Br-]` has an MIC of 1 µM (SH1000 MSSA).
With `COc1c(C)c(OC(=O)c2ccc3ccccc3c2)c(C)c(O)c1C(=O)/C=C/c1ccccc1` the MIC was 5000 µg/mL (microbial growth, broth dilution; ATCC25923).
`CCCCCCn1cc[n+](CCCCCCCCCCOc2cc(OCCCCCCCCCC[n+]3ccn(CCCCCC)c3)cc(OCCCCCCCCCC[n+]3ccn(CCCCCC)c3)c2)c1.[Br-].[Br-].[Br-]` has an MIC of 2 µM (CA-MRSA USA300-0114).
The MIC of `NCC(=O)N1CCN(c2cc3c(cc2F)c(=O)c(C(=O)O)cn3C2CC2)CC1` is reported as 5 µM (microbial growth, broth dilution; NEWMAN).

Repeated from above:
For `COc1cc(C(=O)Nc2ccc(C(=O)O)c(O)c2)ccc1NC(=O)c1ccc(NC(=O)[C@H](Cc2c[nH]nn2)NC(=O)c2ccc(NC(=O)/C(C)=C/c3ccc(O)cc3)cc2)cc1`, the MIC was 8 µg/mL (broth microdilution; ciprofloxacin-resistant).
`CCCCC=CC(=O)NC(Cc1cc(F)cc(F)c1)C(=O)NC1COC(=O)C2CCCN2C(=O)C(C)NC(=O)C(C)N(C)C(=O)C2CCCN2C1=O` (centres unmarked) has an MIC of 0.78 µg/mL (microbial growth, broth dilution).
